Measurements gathered from unrelated publications.
Each line is one published result; not all experiments were run side by side. ± gives the spread as reported.
MET Y1235D: Hepatocyte growth factor receptor (MET, Homo sapiens, UniProt P08581, Y1235D)
MET: Hepatocyte growth factor receptor (MET, Homo sapiens, UniProt P08581)

O=C(NC1CCC1)c1ccc2nc(-c3cccc(NS(=O)(=O)NCCN4CCCCC4)c3)cn2c1 — remaining activity (MET (Homo sapiens, UniProt P08581, M1250T); enzyme activity; 10 µM): 100%
C1=C/COCc2cc(ccc2OCCN2CCCC2)Nc2nccc(n2)-c2cccc(c2)COC/1 — remaining activity (MET Y1235D; concentration not given; baseline: untreated control): 100%
CC#CC(=O)N1CCC[C@H]1c1nc(-c2ccc(C(=O)Nc3ccccn3)cc2)c2c(N)nccn12 — remaining activity (MET; kinase activity, inhibitor, HotSpot radiometric; 100 nM, with: ATP 10 µM): 99 ± 6.7%
COc1cc(N2CCN(C)CC2)ccc1Nc1nc(N)n(C(=O)NCc2ccccc2S(=O)(=O)C(C)C)n1 — remaining activity (MET Y1235D; enzyme activity; 10 µM; baseline: control): 18%
COc1ccc(F)cc1C(=O)NCc1ccc(-c2nn([C@@H](C)C(F)(F)F)c(N)c2C(N)=O)cc1 — remaining activity (MET; 1000 nM, with: ATP at Km): 83.8 ± 6%
COc1cc(F)ccc1-c1ncnc(Nc2cccc(C[S@](C)(=N)=O)c2)n1 — remaining activity (MET; kinase activity; 10 µM, with: 10 µM ATP): 91%
c1cnc2ccc(Nc3nc(NC4CC4)c4nc[nH]c4n3)cc2c1 — remaining activity (MET; kinase activity, inhibitor, SelectScreen kinase profiling; 1 µM; baseline: control): 98%
COc1cc(N2CCN(C)CC2)ccc1Nc1nc(N)n(C(=S)NCc2c(Cl)cccc2Cl)n1 — remaining activity (MET Y1235D; enzyme activity; 10 µM; baseline: control): 0.2%
Cc1[nH]c(/C=C2\C(=O)Nc3ccc(F)cc32)c(C)c1C(=O)N[C@H]1CCN(C(=O)N(C)C)C1 — remaining activity (MET; kinase activity, inhibitor; 0.1 µM; baseline: no-compound control): 108%
CCCOc1ccc(OC)c(F)c1C(=O)c1ccc(C(=O)N[C@@H]2CNC[C@H]2NC(=O)c2ccc3[nH]ncc3c2)cc1 — remaining activity (MET; enzyme activity; 10 µM): 53%
COc1cc(-c2cncc3c2CN(C)Cc2cc(N4CCNCC4)ccc2-3)cc(OC)c1OC — remaining activity (MET (Homo sapiens, UniProt P08581, D1228N); kinase activity; 1 µM, with: ATP 10 µM; baseline: DMSO control): 105%

Some of these lines once more:
O=C(NC1CCC1)c1ccc2nc(-c3cccc(NS(=O)(=O)NCCN4CCCCC4)c3)cn2c1 — remaining activity (MET (Homo sapiens, UniProt P08581, M1250T); enzyme activity; 10 µM): 100%
